# Assay results of several laboratories.
# Protocols differ between the studies behind these lines. “And” joins repeats or separate records; there may be more than shown. Numbers after ± are the reported error.
Structure (SMILES),tested on,assay,system,conditions,scale,endpoint,value
c1ccc(-c2n(Cc3ccc4ccccc4c3)cc[n+]2Cc2ccc3ccccc3c2)cc1,NCI60 NSCLC cell lines,cell growth,,,,GI50,≤ 1.78 µM
CCc1cc2c(N3CCN(c4nncs4)CC3)ncnc2s1,OCI-Ly1,,,"0.1 µM, 120 h",,viability,103%
C=CC(=O)N1CCC(COCC(=O)N2CCN(c3nc(-c4cnc(N)nc4C(F)F)nc(N4CCOC[C@@H]4C)n3)CC2)CC1,HCC1954,resazurin growth rate inhibition,,72 h,,GR50,5.5 nM
Clc1nc(NCc2ccco2)c2[nH]cnc2n1,iPSC-derived cardiomyocytes,"RNA-seq, measured: ASPM chr1 exon ending 197105185",,unit not given,reference: DMSO minus compound,ΔPSI,0.253
C[C@H](NC(=O)C(=O)Nc1ccccc1C(C)(C)C)C(=O)N[C@@H](CC(=O)O)C(=O)COc1c(F)c(F)cc(F)c1F,"THP-1 GSDMD knockout, LPS-primed",inhibitor,,"25 µM, 2 h, together with: nigericin 6.25 µM",,LDH release,20.5% and 37% and 19.3%
Cc1cccc(-c2[nH]c(CNc3ccccc3F)nc2-c2ccc3ncnn3c2)n1,pomalidomide-resistant MM1.S cells,XTT,,4 µM,higher = more viable cells,XTT absorbance,0.6 E-1 and 0.8 E-1 and 1.1 E-1
Nc1ncnc2c1ncn2[C@@H]1O[C@H](CO)[C@@H](O)[C@H]1O,activated human T cells,measured: ATP,,10 µM,reference: DMSO,log2 fold change,0.6 and 1
CCCCc1oc2ccc(NS(C)(=O)=O)cc2c1C(=O)c1ccc(OCCCN(CCCC)CCCC)cc1,human embryonic stem cell aggregates,"mRNA level, microarray, measured: NR2F2",,"0.5 µM, 120 h","reference: untreated, down-regulated",fold change,3.5 fold
CCn1c(=O)/c(=C2\Sc3cc(Cl)ccc3N2C)s/c1=C\c1scc[n+]1Cc1ccccc1.[Cl-],iPSC-derived cardiomyocytes,concentration-response fit,,,reference: vehicle,fitted bottom MyBP-C/MYH ratio,0%
Fc1ccc(CNc2ccc3nc(COCc4ccccc4)[nH]c3c2)cc1,sample A patient iPSC-derived NPCs,MTS,,"10 µM, 24 h",reference: vehicle,viability,140 ± 4.04%
Cn1cc(-c2ccc(-c3cncc(Cl)c3N3CCC4(CCNC4=O)CC3)cc2)cn1,COLO 205,"gene expression, microarray, measured: ITPR1 mRNA",,"concentration not given, 6 h",reference: untreated cells,log2 fold change,2.31
Cc1cc(O)c2c(c1)C(=O)c1cc(O)cc(O)c1C2=O,HepaRG co-cultured with HK-2,MTT,,"66.67 µM, 24 h",reference: untreated control,cell viability,50.1 ± 12.7%
O=C(/C=C/C=C/C=C/C1CCCCC1)NC1=C[C@@](O)(/C=C/C=C/C=C/C(=O)NC2=C(O)CCC2=O)[C@@H]2O[C@@H]2C1=O,COLO-678,"cell growth, CellTiter-Glo",,78 h,,GI50,24.1 µM
Cc1ncsc1-c1ccc([C@H](C)NC(=O)[C@H]2C[C@H](O)CN2C(=O)[C@@H](NC(=O)CCCCCCCCCNC(=O)c2ccc3c(c2)[C@H](NC(=O)c2cc(-c4ccc(C(=O)N(C)C)c(O)c4)on2)CC3)C(C)(C)C)cc1,MV4-11,"TMT proteomics, measured: CCDC106 protein",,"concentration not given, 2 h",reference: DMSO,log2 fold change,-0.364
O=C(CCCCCCC(=O)Nc1cccnc1)NO,OCI-Ly1,,,"0.5 µM, 120 h",,viability,77%
CCC(=O)NS(=O)(=O)c1ccc(-c2c(-c3ccccc3)noc2C)cc1,COS-7,WST-8,,"100 µM, 24 h, 0.1% DMSO, unit not given",reference: control,metabolic activity,0.97 ± 0.02
COc1ccc(-n2nc(C(C)=O)s/c2=N\N=C(/C)c2ccc(NC(=O)c3ccc(Cl)cc3)cc2)cc1,MCF7,,,0.625 µM,,toxicity,88.2%
C=C(C)[C@@H](CC=C(C)C)C[C@@]12C[C@@H](CC=C(C)C)C(C)(C)[C@@](CC=C(C)C)(C(=O)C(C(=O)c3ccc(O)c(O)c3)=C1O)C2=O,OCI-Ly1,,,"0.1 µM, 120 h",,viability,4.87%
C[n+]1cc2c3c(ccc2c2ccc4cc5c(cc4c21)OCO5)OCO3,iPSC-derived cardiomyocytes,concentration-response fit,,,reference: vehicle,fitted bottom MyBP-C/MYH ratio,0%
Cn1c(Nc2nc3ccc(C(F)(F)F)cc3s2)nc2cc(C(=O)NCCOCCO)ccc21,SH-SY5Y,"RNA-seq, measured: CD274 mRNA",,"5 µM, 5 h",reference: untreated cells,fold change,2.16
COc1c(O[C@@H]2O[C@H](CO)[C@@H](O)[C@H](O)[C@H]2O)cc2c(c1O)C(=O)c1c(cc(C)c(O)c1OC)C2=O,HepaRG co-cultured with HK-2,MTT,,"66.67 µM, 24 h",reference: untreated control,cell viability,95.1 ± 11.8%
NC(=O)c1cnc2[nH]ccc2c1N[C@@H]1[C@@H]2CC3C[C@H]1C[C@@](O)(C3)C2,,"flow cytometry, measured: CD8+ memory T cells","Japanese healthy subjects, peripheral blood","oral, 100 mg twice daily, day 4",,change from baseline,0.05%
Nc1ncnc2c1ncn2[C@@H]1O[C@H](C[C@@H](N)CC[C@H](N)C(=O)O)[C@@H](O)[C@H]1O,OCI-Ly1,,,"1 µM, 120 h",,viability,118%
CN1C(C(=O)Nc2ccccn2)=C(O)c2sc(Cl)cc2S1(=O)=O,COS-7,,,"100 µM, 24 h, 0.1% DMSO, unit not given",reference: control,confluence,0.82 ± 0.15
Cc1ccc(C(=O)Nc2ccc(S(=O)(=O)O)c3cc(S(=O)(=O)O)cc(S(=O)(=O)O)c23)cc1NC(=O)c1cccc(NC(=O)Nc2cccc(C(=O)Nc3cc(C(=O)Nc4ccc(S(=O)(=O)O)c5cc(S(=O)(=O)O)cc(S(=O)(=O)O)c45)ccc3C)c2)c1,OCI-Ly1,,,"0.5 µM, 120 h",,viability,144%
CCn1cc(-c2cc(Cn3ccnc3)cc3c2CCN([C@H](c2cc(OC)ccn2)C2CC2)C3=O)c(C(F)(F)F)n1,TE-11,"cell growth, inhibitor",,120 h,,EC50,3.48 µM
COc1cc2c(cc1-c1c(C)noc1C)ncc1[nH]c(=O)n([C@H](C)c3ccccn3)c12,OCI-Ly1,,,"0.1 µM, 120 h",,viability,130%
Oc1ccccc1-c1n[nH]cc1-c1ccnc2ccccc12,IKS1 (Candida albicans),"kinase binding, MIB/MS competition",Candida albicans lysate,10 µM,reference: DMSO,log2 fold change,0.2

# Some of these lines once more:
Structure (SMILES),tested on,assay,system,conditions,scale,endpoint,value
CCn1cc(-c2cc(Cn3ccnc3)cc3c2CCN([C@H](c2cc(OC)ccn2)C2CC2)C3=O)c(C(F)(F)F)n1,TE-11,"cell growth, inhibitor",,120 h,,EC50,3.48 µM
CN1C(C(=O)Nc2ccccn2)=C(O)c2sc(Cl)cc2S1(=O)=O,COS-7,,,"100 µM, 24 h, 0.1% DMSO, unit not given",reference: control,confluence,0.82 ± 0.15
